Results gathered from unrelated publications.
Each numbered part is a random draw from the data of one study; scales do not carry over between parts. Values joined by “and” are separate records of one study, mostly repeats; a detail may differ.

Set 1
SMILES: CC(C)S(=O)(=O)c1cc2c(Nc3ccc4sc(C5CCCC5)nc4c3)ccnc2cc1OCCO
For L929 RIPK3 knockout; 0.781 µM: viability read 94.8% and 96.9% and 95.5% and 95% and 93.5%.
The viability was 103% (L929; necroptosis protection, CCK-8; 10 µM, with: TNF-α plus zVAD).
For L929; CCK-8; 100 µM, with: zVAD: viability read 8.19% and 13.3% and 8.14%.
L929; CCK-8; 50 µM — viability: 37.6% and 36.6% and 58% and 59.9%.
It gave 52.5% and 53.2% and 55.6% and 51.8% for viability (L929 RIPK3 knockout; 50 µM, with: zVAD).
L929; CCK-8; 1.563 µM, with: zVAD — viability: 98.2% and 101% and 97.5% and 97.3% and 91%.
It gave 48.6% for viability (L929; necroptosis protection, CCK-8; 0.078 µM, with: TNF-α plus zVAD).
The viability was 98.9% and 99.2% and 93.3% (L929; CCK-8; 3.125 µM, with: zVAD).
The viability was 39% and 56.8% and 38.4% and 37.8% and 57.3% (L929; CCK-8; 50 µM, with: zVAD).
The viability was 95.6% and 97.5% and 95% and 89.4% and 92.5% (L929 RIPK3 knockout; 6.25 µM).
The viability was 90.4% and 97.8% and 95.4% and 91.2% (L929 RIPK3 knockout; 0.781 µM, with: zVAD).
L929; necroptosis protection, CCK-8; 0.123 µM, with: TNF-α plus zVAD — viability: 36.4%.
L929; necroptosis protection, CCK-8; 0.313 µM, with: TNF-α plus zVAD — viability: 65.7%.

Set 2 — read-out: enzyme activity; mode: inhibitor; concentration: 77 µM; baseline: untreated
Target: DNA polymerase theta, ATPase domain (POLQ, Homo sapiens, UniProt O75417)
UniProt O75417, sequence (whole entry, unmodified, looked up): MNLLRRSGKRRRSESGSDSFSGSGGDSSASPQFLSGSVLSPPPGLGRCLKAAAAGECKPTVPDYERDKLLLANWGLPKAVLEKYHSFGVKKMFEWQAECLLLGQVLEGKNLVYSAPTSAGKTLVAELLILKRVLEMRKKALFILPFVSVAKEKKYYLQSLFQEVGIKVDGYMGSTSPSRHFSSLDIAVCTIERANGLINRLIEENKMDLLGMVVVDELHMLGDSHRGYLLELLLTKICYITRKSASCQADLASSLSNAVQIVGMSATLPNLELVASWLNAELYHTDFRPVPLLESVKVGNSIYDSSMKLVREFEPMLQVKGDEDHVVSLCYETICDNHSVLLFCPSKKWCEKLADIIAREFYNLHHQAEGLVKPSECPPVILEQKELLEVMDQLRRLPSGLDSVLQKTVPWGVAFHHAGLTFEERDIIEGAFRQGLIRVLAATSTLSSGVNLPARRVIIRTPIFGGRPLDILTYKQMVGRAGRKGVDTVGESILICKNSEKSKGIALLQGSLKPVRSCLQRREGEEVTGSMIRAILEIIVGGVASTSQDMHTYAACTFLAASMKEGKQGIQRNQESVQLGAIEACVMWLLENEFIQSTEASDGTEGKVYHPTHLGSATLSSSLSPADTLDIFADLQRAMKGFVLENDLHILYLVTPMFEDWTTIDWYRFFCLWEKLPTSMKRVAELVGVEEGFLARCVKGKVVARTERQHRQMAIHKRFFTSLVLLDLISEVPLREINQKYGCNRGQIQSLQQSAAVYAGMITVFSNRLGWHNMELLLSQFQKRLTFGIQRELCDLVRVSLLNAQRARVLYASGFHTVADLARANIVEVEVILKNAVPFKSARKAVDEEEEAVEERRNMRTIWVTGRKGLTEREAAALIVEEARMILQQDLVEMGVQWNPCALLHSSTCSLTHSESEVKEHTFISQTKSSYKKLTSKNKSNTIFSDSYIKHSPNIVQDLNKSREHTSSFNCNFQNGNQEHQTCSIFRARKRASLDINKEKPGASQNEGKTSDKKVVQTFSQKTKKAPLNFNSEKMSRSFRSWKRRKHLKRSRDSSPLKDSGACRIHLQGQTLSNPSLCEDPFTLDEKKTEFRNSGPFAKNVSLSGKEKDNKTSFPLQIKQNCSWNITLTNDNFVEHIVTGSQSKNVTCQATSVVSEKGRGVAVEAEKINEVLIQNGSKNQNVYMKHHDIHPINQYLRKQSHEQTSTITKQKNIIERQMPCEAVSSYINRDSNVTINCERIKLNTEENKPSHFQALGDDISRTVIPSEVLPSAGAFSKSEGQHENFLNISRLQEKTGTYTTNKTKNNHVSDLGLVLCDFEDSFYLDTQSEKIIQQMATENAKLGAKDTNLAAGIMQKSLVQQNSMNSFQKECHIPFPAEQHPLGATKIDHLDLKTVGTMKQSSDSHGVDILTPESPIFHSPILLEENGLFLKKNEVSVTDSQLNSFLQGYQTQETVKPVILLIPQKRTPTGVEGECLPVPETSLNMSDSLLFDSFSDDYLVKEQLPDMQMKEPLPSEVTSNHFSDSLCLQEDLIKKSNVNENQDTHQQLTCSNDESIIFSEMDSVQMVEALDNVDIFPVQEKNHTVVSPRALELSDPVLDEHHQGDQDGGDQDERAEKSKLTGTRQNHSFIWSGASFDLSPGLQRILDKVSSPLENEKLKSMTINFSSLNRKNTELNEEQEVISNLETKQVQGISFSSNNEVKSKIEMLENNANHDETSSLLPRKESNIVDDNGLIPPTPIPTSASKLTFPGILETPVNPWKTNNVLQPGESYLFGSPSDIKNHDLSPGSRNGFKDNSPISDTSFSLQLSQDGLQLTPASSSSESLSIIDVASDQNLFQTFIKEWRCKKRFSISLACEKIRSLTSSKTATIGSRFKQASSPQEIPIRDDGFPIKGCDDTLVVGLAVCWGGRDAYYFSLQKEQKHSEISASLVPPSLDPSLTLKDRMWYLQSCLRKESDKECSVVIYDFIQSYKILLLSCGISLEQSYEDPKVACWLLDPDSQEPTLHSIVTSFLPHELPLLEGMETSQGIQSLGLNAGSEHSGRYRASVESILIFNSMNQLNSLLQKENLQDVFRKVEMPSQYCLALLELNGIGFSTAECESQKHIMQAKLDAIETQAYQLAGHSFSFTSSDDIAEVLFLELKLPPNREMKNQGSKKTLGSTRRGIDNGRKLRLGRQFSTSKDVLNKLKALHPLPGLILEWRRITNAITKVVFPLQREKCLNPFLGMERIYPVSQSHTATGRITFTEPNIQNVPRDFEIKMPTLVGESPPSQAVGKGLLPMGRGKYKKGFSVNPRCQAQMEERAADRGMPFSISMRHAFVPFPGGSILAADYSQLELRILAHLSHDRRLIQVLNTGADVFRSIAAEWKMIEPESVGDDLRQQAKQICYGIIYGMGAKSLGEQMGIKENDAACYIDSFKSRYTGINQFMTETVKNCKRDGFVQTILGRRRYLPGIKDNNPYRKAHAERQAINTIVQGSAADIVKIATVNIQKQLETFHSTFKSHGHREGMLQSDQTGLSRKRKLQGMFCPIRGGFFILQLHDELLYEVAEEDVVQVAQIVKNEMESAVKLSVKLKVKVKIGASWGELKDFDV
The remaining activity of O=P1(N(CCCl)CCCl)NCCCO1 (stereo not shown) is reported as 96.5%.
NC(N)=Nc1ccc2[nH]c3c(c2c1)C[C@@]1(O)[C@H]2Cc4ccc(O)c5c4[C@@]1(CCN2CC1CC1)[C@H]3O5 has a remaining activity of 106%.
CN(N=O)c1cc(O)ccc1O has a remaining activity of 101%.
With COC1=C[C@@H]2C3=C([C@@H]2C1=O)[C@@H](NC(C)=O)CCc1cc(OC)c(OC)c(OC)c13 the remaining activity was 98.5%.
The remaining activity of CC(C)NC(C)Cc1ccc(I)cc1 (stereo not shown) is reported as 101%.

Set 3 — read-out: enzyme activity; mode: inhibitor; technique: radiometric; concentration: 0.5 µM
Target: Dual specificity tyrosine-phosphorylation-regulated kinase 1B (DYRK1B, Homo sapiens, UniProt Q9Y463)
CC(C)[C@H](CO)Nc1nc(Nc2cc(N)cc(Cl)c2)c2ncn(C(C)C)c2n1 gave a remaining activity of 38.3%.
For Cc1nc(-c2ccccc2)c(-c2ccncc2)o1, the remaining activity was 98.9%.
COc1ccc(CNC(=O)Nc2ncc([N+](=O)[O-])s2)cc1 has a remaining activity of 99.4%.
For Cc1ccc(Nc2nccc(N(C)c3ccc4c(C)n(C)nc4c3)n2)cc1S(N)(=O)=O, the remaining activity was 93.3%.
The remaining activity of O=S(=O)(c1cccc2cnccc12)N1CCCNCC1 is reported as 96.3%.
For Nc1ccc2ncnc(NCCc3ccc(Oc4ccccc4)cc3)c2c1, the remaining activity was 104%.
With O=C(O)c1ccc2c3c1cccc3c(=O)n1c3ccccc3nc21 the remaining activity was 40.1%.
Nc1[nH]nc2nc3ccccc3nc12 has a remaining activity of 96%.

Set 4 — cell line: A-375; concentration: 100 µM; time: 18 h
The viability of COC1=C[C@@H]2[C@@H]3Cc4ccc(OC)c(O)c4[C@]2(CCN3C)CC1=O is reported as 90.9%.
The viability of CC[C@]12C=CCN3CC[C@]4(C(=C(C(=O)OC)C1)Nc1ccccc14)[C@@H]32 is reported as 25.1%.
CC[C@@H](C(N)=O)N1CCCC1=O gave a viability of 108%.
With N#Cc1ccccc1-c1cc(-c2ccccn2)cn(-c2ccccc2)c1=O the viability was 93.2%.
For CCOC(=O)c1cncn1[C@H](C)c1ccccc1, the viability was 91.7%.

Excerpt of the above (set 1):
L929; CCK-8; 50 µM — viability: 37.6% and 36.6% and 58% and 59.9%.
L929; necroptosis protection, CCK-8; 0.123 µM, with: TNF-α plus zVAD — viability: 36.4%.
It gave 48.6% for viability (L929; necroptosis protection, CCK-8; 0.078 µM, with: TNF-α plus zVAD).
L929; CCK-8; 1.563 µM, with: zVAD — viability: 98.2% and 101% and 97.5% and 97.3% and 91%.
